Measured values pooled from the literature.
Protocols differ between the studies behind these lines. Numbers after ± are the reported error.
GBA1 R534H: Lysosomal acid glucosylceramidase (GBA1, Homo sapiens, UniProt P04062, R534H)
Chain of UniProt P04062 (whole entry, unmodified, looked up): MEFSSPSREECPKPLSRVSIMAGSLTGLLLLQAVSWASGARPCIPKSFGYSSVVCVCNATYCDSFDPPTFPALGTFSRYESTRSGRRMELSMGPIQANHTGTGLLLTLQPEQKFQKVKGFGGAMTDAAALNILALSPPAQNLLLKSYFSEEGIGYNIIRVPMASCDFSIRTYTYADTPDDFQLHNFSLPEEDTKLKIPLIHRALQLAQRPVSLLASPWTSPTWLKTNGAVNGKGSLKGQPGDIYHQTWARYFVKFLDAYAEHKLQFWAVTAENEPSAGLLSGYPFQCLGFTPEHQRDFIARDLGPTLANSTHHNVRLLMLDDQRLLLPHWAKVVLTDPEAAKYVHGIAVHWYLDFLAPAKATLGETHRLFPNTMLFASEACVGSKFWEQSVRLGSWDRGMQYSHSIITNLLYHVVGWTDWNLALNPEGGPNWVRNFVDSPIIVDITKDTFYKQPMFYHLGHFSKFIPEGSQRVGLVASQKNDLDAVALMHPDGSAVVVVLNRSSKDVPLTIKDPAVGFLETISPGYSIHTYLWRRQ

The IC50 of `C=CC(=O)Nc1cc(Nc2nccc(-c3cn(C)c4ccccc34)n2)c(OC)cc1N(C)CCN(C)C` is reported as over 1 µM (Ba/F3 EGFR 19Del/C797S BBT-176-resistant BR2; cell growth; 72 h).
`CNS(=O)(=O)Nc1nccc(Cc2c(C)c3ccc(Oc4ncccc4F)cc3oc2=O)c1F` gave an IC50 of over 1 µM (Kuramochi; cell viability, CellTiter-Glo; 7 days).
With `CCCCCCCCCC(=O)Oc1c(C)c(OC)c2c(/C=C/c3ccccc3)c(CCCCCCCC)c(=O)oc2c1C` the IC50 was over 50 µM (FaDu; cell growth or viability, SRB; 72 h).
For `COc1ccc(CCN(C)CCCC(C#N)(c2ccc(OC)c(OC)c2)C(C)C)cc1OC` (centres unmarked), the relative translation was 97.3% (Trypanosoma cruzi; reporter mRNA translation, inhibitor, measured: capped polyadenylated Renilla luciferase mRNA; cell-free extract; concentration not given; relative to: control RNA).
The IC50 of `COc1c(C)c(OS(=O)(=O)c2ccccc2)c(C)c(OS(=O)(=O)c2ccccc2)c1C(=O)/C=C/c1ccccc1` is reported as over 50 µM (FaDu; cell growth or viability, SRB; 72 h).
With `CCOc1cncc(-c2ccc(NC(=O)C3(c4ccnc(NS(=O)(=O)C5CC5)n4)CCOCC3)nc2)n1` the IC50 was 10 µM (lung cancer; cell viability, CellTiter-Glo; DMSO 0.1%; 72 h, line code 289).
`CC[C@H]1CC[C@H]2[C@@H]3C[C@@H](O)[C@@]4(O)C[C@H](N)CC[C@]4(C)[C@H]3CC[C@]12C` has an IC50 of 1.02 µM (HMC3; cell growth or viability, imaging).
With `CCCC[C@H](NC(=O)CCCCCCCNC(=O)CN1CCN(CC(=O)O)CCN(CC(=O)O)CC1)C(=O)N[C@H]1CC(=O)NCCCC[C@@H](C(N)=O)NC(=O)[C@H](Cc2c[nH]c3ccccc23)NC(=O)[C@H](CCCNC(=N)N)NC(=O)[C@@H](Cc2ccccc2)NC(=O)[C@H](Cc2c[nH]cn2)NC1=O` [technetium-99m labelled] the tissue uptake was 0.21 ± 0.22 %ID/g (C57 mouse, pancreas; intravenous, 0.037 MBq, 0.5 h).
`COc1ccccc1-c1ccc(COCCCCCN2C[C@H](O)[C@@H](O)[C@H](O)[C@H]2CO)cc1` has an IC50 of 0.6 µM (GBA1 R534H; inhibitor, 4MU-β-D-glucopyranoside; with: 4MU-β-D-glucopyranoside).
For `N#Cc1c(N)nc2c(c1-c1ccccc1)Cc1cc(O)ccc1-2`, the IC50 was 20.2 µM (HBP-ALL; cell viability, CellTiter-Glo; no inhibition at 100 µM).
For `O=C(NCCOCCOCCNC(=O)c1cc2ccccc2c2ccccc12)c1cc(C(=O)N2CCNCCNCCNCC2)c(O)c(C(=O)N2CCNCCNCCNCC2)c1`, the IC50 was over 1000 µM (PK-59; cell growth or viability, MTT; 24 h).
`NC(=O)c1ccc(-c2ccccc2Cl)c2c3c([nH]c12)CC[C@H](N)C3` has an IC50 of 0.0194 µM (BGC-823; cell growth or viability).
`CC(C)CC(OC1OC(CO)C(O)C(OC(=O)C=Cc2ccccc2)C1O)(C(=O)OCc1ccc(OC2OC(CO)C(O)C(O)C2O)cc1)C(O)C(=O)OCc1ccc(OC2OC(CO)C(O)C(O)C2O)cc1` (centres unmarked) gave an IC50 of over 200 µM (T47D breast cancer; cell viability, MTT; DMEM with 10% FBS; 48 h).
With `C=CC(=O)N1CCCC(n2c(=O)c3ncccc3n(Cc3ccc(Oc4ccccc4)cc3)c2=O)C1` (centres unmarked) the IC50 was 0.3 µM (OCI-Ly8; cell growth or viability, MTT; 72 h).
For `CN1CCC(OC(=O)c2ccc(Br)cc2)CC1.Cl`, the relative translation was 104% (Trypanosoma cruzi; reporter mRNA translation, inhibitor, measured: capped polyadenylated Renilla luciferase mRNA; cell-free extract; concentration not given; relative to: control RNA).
The IC50 of `CC(C)c1ccc(N(C)c2ccc3c(c2)OCC[C@H]3CNc2cnccc2C(=O)O)cc1` is reported as 0.00825 µM (KYSE-410; cell growth or viability, ATP luminescence; 7 days).
For `COc1ccc2c(c1)OC1=C(C(=O)CC(C)(C)C1)C2C1=C(O)CC(C)(C)CC1=O` (centres unmarked), the IC50 was 74 µg/mL (3T3-L1; cell growth or viability, MTT; 72 h).
`O=C1CCC(N2C(=O)c3ccc(N4CCC(C(=O)N5CCC(CCN6CCC(CNC(=O)c7cccc(-c8noc(C(F)(F)F)n8)c7)(c7nc(-c8ccccc8)cs7)CC6)CC5)CC4)cc3C2=O)C(=O)N1` (centres unmarked) has an IC50 of 1.1 ± 0.0131 µM (JeKo-1 CRBN knockout; cell proliferation; 168 h).
With `CC(C)=CC1OC(C)(C)C2C=C3C(=O)C(Cl)=CC(O)C3C3C(O)C4OC4C(=O)C132` (centres unmarked) the IC50 was 0.63 µM (KARPAS-299; cell growth or viability, MTS).
The IC50 of `CN1CC[C@@H](COc2cnc(C#N)cc2-c2ccn3nc(NC(=O)C4CC4)cc3c2)C1` is reported as about 6.6 µM (human T cells; T cell activation, measured: IL-2; with: anti-CD3/anti-CD28).
`N#Cc1cccc(-c2ccc(COCCCCCN3C[C@H](O)[C@@H](O)[C@H](O)[C@H]3CO)cc2)c1` gave an IC50 of 0.7 µM (GBA1 R534H; inhibitor, 4MU-β-D-glucopyranoside; with: 4MU-β-D-glucopyranoside).
`COc1cc(-c2cc(C(C)=O)n3ccccc23)cc(OC)c1Cn1ccnc1` gave an IC50 of 0.23 µM (Kasumi 1; cell growth or viability, ATP luminescence).
With `Clc1ccc2c(c1)N(CCCN1CCN(CCn3cc(CN4CCCNCCN(Cc5cn(CCN6CCN(CCCN7c8ccccc8Sc8ccc(Cl)cc87)CC6)nn5)CCCNCC4)nn3)CC1)c1ccccc1S2` the IC50 was 2.3 µM (SH-SY5Y, differentiated; cell viability; with: amyloid-beta 42 10 µM).
The IC50 of `Cn1ncc(-c2ccc3c(=O)[nH]nc(CN)c3c2)c1-c1c(F)c(Cl)cc(OC2CC2)c1C#N` is reported as 0.04 µM (HCC2279; cell viability; 120 h, relative IC50).
`CC(=O)[O][Pt]([NH2])([NH2])([Cl])([Cl])[O]C(=O)CCC(C)C1CCC2C3CCC4CC(O)CCC4(C)C3CCC12C` (centres unmarked) has an IC50 of 4.3 ± 0.3 µM (RWPE-1 normal prostate; cell viability, MTT; 72 h).
For `CCCCCCCCCCCCSCC(COCC(O)C[N+](C)(C)C)SCCCCCCCCCCCC` (centres unmarked), the IC50 was 110 µM (BHK-21; cell growth or viability, MTT).
With `CCCCCCCC(=O)[O][Pt]([Cl])([Cl])[O]C(=O)CCCCCCC.N.N` the IC50 was 0.73 ± 0.82 µM (A549/DDP cisplatin-resistant; MTT; 48 h, with: survivin siRNA 10 nM transfected 24 h before).
`C=C1C(=O)OC2C1CCC(C)(O)C13C=CC(C)(C21)C1(C3)C(=O)OC2C3C(C)=CCC3C(C)(O)CCC21` (centres unmarked) gave an IC50 of 35.9 ± 4.21 µM (AML12; lipid accumulation, Nile Red staining; with: palmitate/oleate).
With `CC1(C)CC(=O)C2=C(C1)Oc1ccc(Cl)cc1C2c1c(C(=O)O)[nH]c2ccccc12` (centres unmarked) the IC50 was 16.3 µg/mL (3T3-L1; cell growth or viability, MTT; 72 h).
The IC50 of `CN(C)c1ccc(/C=C/c2cc(/C=C3\Sc4ccccc4N3CCCN3CCCC3)c3ccccc3[n+]2C)cc1` is reported as 10.4 µM (HK-2; cell growth or viability, MTT; 36 h).
The IC50 of `CC1(C)CC(=O)C2=C(C1)Oc1ccc3ccccc3c1C2n1nnc2ccccc21` (centres unmarked) is reported as 61.4 µg/mL (3T3-L1; cell growth or viability, MTT; 72 h).
`O=C(O)CCc1ccc2c(c1)c(CCc1ccccc1)cn2-c1ccc(Oc2ccccc2)cc1` gave an IC50 of 0.04 µM (BV-2; PGE2 release, inhibitor; LPS-stimulated).

Repeated from above:
With `CCCC[C@H](NC(=O)CCCCCCCNC(=O)CN1CCN(CC(=O)O)CCN(CC(=O)O)CC1)C(=O)N[C@H]1CC(=O)NCCCC[C@@H](C(N)=O)NC(=O)[C@H](Cc2c[nH]c3ccccc23)NC(=O)[C@H](CCCNC(=N)N)NC(=O)[C@@H](Cc2ccccc2)NC(=O)[C@H](Cc2c[nH]cn2)NC1=O` [technetium-99m labelled] the tissue uptake was 0.21 ± 0.22 %ID/g (C57 mouse, pancreas; intravenous, 0.037 MBq, 0.5 h).
`COc1ccccc1-c1ccc(COCCCCCN2C[C@H](O)[C@@H](O)[C@H](O)[C@H]2CO)cc1` has an IC50 of 0.6 µM (GBA1 R534H; inhibitor, 4MU-β-D-glucopyranoside; with: 4MU-β-D-glucopyranoside).
